# Published values from different studies.
# Every numbered part comes from another study and shows a few of its results, in no order. Changes are numbered by the printed parent chain.

# Series 1
# Target: Centromere-binding protein 1, full length, N-terminal tag (CBF1, Saccharomyces cerevisiae, UniProt P17106, residues 1-351)
# Sequence of UniProt P17106 (whole entry, looked up): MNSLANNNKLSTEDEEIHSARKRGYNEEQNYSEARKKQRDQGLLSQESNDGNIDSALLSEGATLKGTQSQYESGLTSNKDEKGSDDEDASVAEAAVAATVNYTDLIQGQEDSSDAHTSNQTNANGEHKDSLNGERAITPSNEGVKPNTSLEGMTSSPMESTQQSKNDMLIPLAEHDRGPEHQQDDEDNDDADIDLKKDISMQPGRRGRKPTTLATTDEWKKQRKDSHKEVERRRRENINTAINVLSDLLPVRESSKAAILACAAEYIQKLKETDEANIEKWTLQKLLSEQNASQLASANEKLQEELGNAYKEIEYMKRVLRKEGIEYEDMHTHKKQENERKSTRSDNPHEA
# Technique: protein-binding microarray
# Form: double-stranded DNA, one strand shown
# Sample: in vitro
# Concentration: 0.8 µM
# Setting: whole 60-bp probe, no competitor
# Reading: higher = stronger binding
Sequence,fluorescence intensity [a.u.]
TGTACGAAGCTATATGATGCAACTATAGTAGTTAGGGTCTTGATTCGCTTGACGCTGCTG,524
GAACCGCCCAGCTCCCACGTGCATATCACGTGCTAGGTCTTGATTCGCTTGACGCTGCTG,22000
GAAAAGATCGTAAGCAACGTGTTCAACACGTACTAGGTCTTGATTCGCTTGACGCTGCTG,1630
CTACCCTTTTCTGATCTGATGTTCTCACGCTCTTTCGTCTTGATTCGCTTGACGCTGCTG,540
GAAACAAAACAATGGCGTGGGGTGATGAAATAATAGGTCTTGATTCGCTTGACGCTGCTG,551
CTAGCCATTACCGCCGACATCACTGCTCTTTCTTTCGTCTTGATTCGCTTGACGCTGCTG,548
GAAACAAAATATGATCACATCACTTCTTAAATGTAGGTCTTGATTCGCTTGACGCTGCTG,574
GAAGTTATCAATTATAACGTGAAAGGTTTTGCATAGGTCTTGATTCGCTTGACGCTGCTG,582
CTACTCATATGTGCTCTCGTGCTTGTTTATCCTTTCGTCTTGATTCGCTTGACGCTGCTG,675
CCTAACTACTATAATCTCAACTGATAGCTTCGTACAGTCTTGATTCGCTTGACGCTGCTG,514
GAAAGAAGCGTACGTCACGGCAAAACCAGCGACTAGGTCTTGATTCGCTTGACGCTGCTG,533
TGTACGAAGCTATACTACACCTGTATAGTAGTTAGGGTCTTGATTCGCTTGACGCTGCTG,492
CTATCAAAGTCTACATGTGACACAAAGAAAACCTTCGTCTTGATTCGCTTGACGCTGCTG,3270
CTATCGGAGAAAAGTCACGTGCAAAAAGAAATCTTCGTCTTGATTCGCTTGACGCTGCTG,16600

# Series 2
# Target: Ras GTPase-activating protein-binding protein 1, full length (G3BP1, Homo sapiens, UniProt Q13283)
# Sequence of UniProt Q13283 (whole entry, looked up): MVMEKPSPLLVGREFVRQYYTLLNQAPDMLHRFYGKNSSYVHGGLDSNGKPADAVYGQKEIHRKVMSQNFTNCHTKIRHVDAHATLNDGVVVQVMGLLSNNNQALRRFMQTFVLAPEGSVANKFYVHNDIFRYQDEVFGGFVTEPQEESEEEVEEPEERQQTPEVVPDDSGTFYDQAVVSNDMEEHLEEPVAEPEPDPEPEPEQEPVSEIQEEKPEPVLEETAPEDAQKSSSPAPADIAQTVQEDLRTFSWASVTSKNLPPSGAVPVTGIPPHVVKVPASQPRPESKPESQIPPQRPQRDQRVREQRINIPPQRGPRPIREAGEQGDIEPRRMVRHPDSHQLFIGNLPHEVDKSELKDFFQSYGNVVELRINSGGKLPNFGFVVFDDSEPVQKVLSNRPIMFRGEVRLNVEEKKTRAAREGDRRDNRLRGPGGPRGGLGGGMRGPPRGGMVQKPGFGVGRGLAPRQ
# Technique: RNA Bind-n-Seq
# Form: RNA
# Sample: in vitro
# Concentration: 200 nM
# Setting: whole 134-nt RNA, ends assumed
# With: 150 mM KCl
# Baseline: input library
# Reading: higher = stronger binding
Sequence,log2 enrichment
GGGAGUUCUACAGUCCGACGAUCAAGUCCUGUGCUACACAUCGUAUGUACCGAAUCGGCCCCGGGCCCCGGCCCCGGGGAAAGUAUUAUGUUACGCCGUUCGGAUCUGCACUUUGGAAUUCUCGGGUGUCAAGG,-1.07
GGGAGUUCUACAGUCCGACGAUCCAAGUCCUGUGCUACACAUCGUAUGUACCGAAUCGGGGAGGGGUUUGGGGAGGGGAAAGUAUUAUGUUACGCCGUUCGGAUCUGCACUUCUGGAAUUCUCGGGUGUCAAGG,1.5
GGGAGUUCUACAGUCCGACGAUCCCUGUGCUACACAUCGUAUGUACCGAAUCGGGGUUUUUUGGGUUUUUUGGGUUUUUUGGGAAAGUAUUAUGUUACGCCGUUCGGAUCUGCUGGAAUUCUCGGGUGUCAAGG,-0.553
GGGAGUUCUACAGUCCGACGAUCCUCAAGUCCUGUGCUACACAUCGUAUGUACCGAAUCGGGAGGGAGGGGAGGGGAAAGUAUUAUGUUACGCCGUUCGGAUCUGCACUUCCAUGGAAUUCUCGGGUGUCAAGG,1.48
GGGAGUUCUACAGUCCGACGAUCAAGUCCUGUGCUACACAUCGUAUGUACCGAAUCGGGGUGGGGUUUUUGGGGUGGGGAAAGUAUUAUGUUACGCCGUUCGGAUCUGCACUUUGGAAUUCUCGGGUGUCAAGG,0.367
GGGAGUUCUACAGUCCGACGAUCGCAGGAAGUAAAAACAAAUGGAAAUGCUUCGGAUAGUGGCAGGGGUGGGGGUUGCUAAGGAAAGGGUGCGAUGGGAGUGGGUAAAGAGUUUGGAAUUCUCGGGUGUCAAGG,0.831
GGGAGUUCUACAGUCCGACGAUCGCAGGAAGUAAAAACAAAUGGAAAUGCUUCGGAUAGUGGCAGGGGUGGGGGUUGCUAAGGAAAGGGUGGGAUGGGAGUGGGUAAAGAAAAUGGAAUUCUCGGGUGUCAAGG,1.05
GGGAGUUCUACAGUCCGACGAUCCACAGACAACACGCAUCCACACAGACACAGAGGGAAGGGGUUGGGAUGGGGACAGGGUGCACAGCAGGGCGGGGUAGGACCCCAGCCCCUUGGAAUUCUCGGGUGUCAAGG,1.75
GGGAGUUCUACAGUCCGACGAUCCAAGUCCUGUGCUACACAUCGUAUGUACCGAAUCGGGGAAAGGGAAAGGGGAAAGGAAAGUAUUAUGUUACGCCGUUCGGAUCUGCACUUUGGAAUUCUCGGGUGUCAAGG,-0.117
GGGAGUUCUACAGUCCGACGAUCUAACUUUAGAGGAGGAUCUGAUGGAUAUGGCAGUGGACGUGGAUUUGGGGAUGGCUAUAAUGGGUAUGGAGGAGGACCUGGAGGUGGCAUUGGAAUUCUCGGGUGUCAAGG,0.272

# Series 3
# Target: ABI1, truncated, D143A, DHFR fusion (Arabidopsis thaliana)
# Technique: DHFR PCA, deep sequencing
# Sample: yeast
# Setting: methotrexate growth selection, single substitutions
# With: (+)-ABA 0.39 µM
# Baseline: wild-type fitted maximum
# Reading: higher = stronger binding
# Parent: PYL1, truncated, DHFR fusion (Arabidopsis thaliana); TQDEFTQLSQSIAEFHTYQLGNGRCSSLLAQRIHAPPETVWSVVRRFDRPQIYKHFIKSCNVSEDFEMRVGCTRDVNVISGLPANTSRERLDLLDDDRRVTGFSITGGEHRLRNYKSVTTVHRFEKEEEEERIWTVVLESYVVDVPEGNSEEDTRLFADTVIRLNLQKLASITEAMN
Variant,relative binding score [%]
T173F,-17.2
C60Q,-10.5
R24G,0.325
C72T,9.83
T119Y,-5.55
E4T,27.6
E131N,65.9
I52N,-12
E67D,41.2
V78C,38.7
R49M,36.1
G102K,-9.17
V44Q,-5.2
N149C,52.9
E139A,11.3
S150A,20.2
D65K,23.2

# Series 4
# Target: Interferon regulatory factor 5, full length, phosphomimetic (IRF5, Homo sapiens, UniProt Q13568-2, residues 1-514, S451D/S453D/S456D/S462D)
# Technique: protein-binding microarray
# Form: double-stranded DNA, one strand shown
# Sample: in vitro
# Concentration: 940 nM top
# Setting: 60-bp whole probe
# With: salmon DNA 0.4 mg/ml
# Baseline: random background probes
# Reading: higher = stronger binding
# Constant ends, left off below: GCCTAGCAC … GTCTTGATTCGCTTGACGCTGCTG
Sequence,fitted relative affinity [z-score]
TTACAACTGAGACTGGATTAGTGCTAG,0.215
TCAATCCTCTCACCTCAGACTGTGCTA,1.01
TCACTTCTGTATTCATGACTGTGCTAG,1.05
TTAGGTATCCGTTTCGGTTAGTGCTAG,4.33
GACGGTTACCTTTCCCTGACGTGCTAG,0.687
TTTGGTTCCCTTTTCCTTTAGTGCTAG,1.06
TTCGAACTGAGTATCGATTAGTGCTAG,4.87
TTAGGTTTCCTTATCCATTAGTGCTAG,2.05
GACGATTTCCTACTGCTGACGTGCTAG,0.684

# Series 5
# Target: TAR DNA-binding protein 43, full length, His tag (TARDBP, Homo sapiens, UniProt Q13148, residues 1-414)
# Technique: RNA Bind-n-Seq
# Form: RNA
# Sample: in vitro
# Concentration: 20 nM
# Setting: 6-mer, flanks averaged, single round
# With: 150 mM LiCl
# Baseline: input library
# Reading: higher = stronger binding
Sequence,6-mer enrichment (R)
AUGAGC,0.944
CCGUAC,0.841
UGAUGA,1.01
GGAACU,0.956
GCUACC,0.891
UUAGGU,1.04
AUGGAC,0.956
GUGUGA,1.86
CGCCUC,0.928
CUUUGG,0.992

# Series 6
# Target: Sal-like protein 4, full length isoform B (SALL4, Homo sapiens, UniProt Q9UJQ4-2, residues 1-616)
# Technique: universal PBM
# Form: double-stranded DNA, one strand shown
# Sample: in vitro
# Concentration: not given
# Setting: 8-mer, flanks averaged, mean of replicates
# Reading: higher = stronger binding
# Construct (chain): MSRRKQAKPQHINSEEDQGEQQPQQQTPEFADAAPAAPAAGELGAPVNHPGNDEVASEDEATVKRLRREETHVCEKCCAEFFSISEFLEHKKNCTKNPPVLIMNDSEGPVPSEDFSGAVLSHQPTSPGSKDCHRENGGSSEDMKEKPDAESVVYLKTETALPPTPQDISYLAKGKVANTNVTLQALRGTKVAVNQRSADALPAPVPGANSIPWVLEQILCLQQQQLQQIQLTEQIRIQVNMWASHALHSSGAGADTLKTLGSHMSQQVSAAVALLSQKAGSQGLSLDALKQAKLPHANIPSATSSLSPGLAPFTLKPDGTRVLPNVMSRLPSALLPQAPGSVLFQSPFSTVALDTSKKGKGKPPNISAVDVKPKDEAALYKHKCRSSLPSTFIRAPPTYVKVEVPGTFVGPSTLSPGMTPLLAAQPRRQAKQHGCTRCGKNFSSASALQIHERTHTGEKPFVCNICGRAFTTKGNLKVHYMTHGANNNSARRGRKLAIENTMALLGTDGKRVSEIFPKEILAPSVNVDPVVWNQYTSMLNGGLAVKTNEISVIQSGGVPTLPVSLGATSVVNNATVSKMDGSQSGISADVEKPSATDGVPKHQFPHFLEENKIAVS
Sequence,E-score
ATAAGAAG,0.188
ACCCAGCT,-0.28
ATCTCACG,-0.103
AGCTTCCA,-0.119
CCACGCTA,-0.0182
GTGGTGTA,0.112
ACGATCCT,0.048
ATACCTAG,0.14
CACCGGCG,-0.287
ACCTGAAG,0.00734
CCGAGCAC,-0.174
CCATTACA,0.272
CAATATTC,0.242
CCAAGTAC,-0.0307
ATTTGGAC,0.0894
GCCTTACA,-0.013
CGTACGCA,-0.126

# For quick reference, copied from above (series 6):
Sequence,E-score
ACCCAGCT,-0.28
ATAAGAAG,0.188
CACCGGCG,-0.287
GTGGTGTA,0.112
ATACCTAG,0.14
CCACGCTA,-0.0182
GCCTTACA,-0.013
